Assay results collected from several papers.
Every numbered part comes from another study and shows a few of its results, in no order.

Study 1
Target: RNA binding protein fox-1 homolog 2, RRM domain, GST-SBP tag (RBFOX2, Homo sapiens, UniProt O43251-10, residues 100-194)
Technique: RNA Bind-n-Seq
Molecule type: RNA
Medium: in vitro
Concentration: 365 nM
Setting: natural RNA segment, single round, ends assumed
Relative to: no-protein control
Direction: higher = stronger binding
Residues (chain): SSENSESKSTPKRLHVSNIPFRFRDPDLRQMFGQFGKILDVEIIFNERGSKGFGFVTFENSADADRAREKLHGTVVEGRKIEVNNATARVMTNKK
Under “RBNS enrichment (R)”, `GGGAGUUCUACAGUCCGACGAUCAGCCAGCCUGUUUGGUCUGCUUCCCCUUUGCUGGACACCUGCGUCCCUCUCUUGUUUCCUCUCCUCUUCUUAUGCCCCCUCCUGGGGAGGAGGCUACUGGAUGUAAGCUGUGGAAUUCUCGGGUGCCAA` is recorded as 0.456.
`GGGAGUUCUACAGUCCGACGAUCCGGUGCAGCUGAGGUUCCCGACACCAGAAGCUGUUGGGAGAAAGCAAUACGUUUGUGCAGAAUCUCUAUGUAUAUUCUAUUUUAUUAAAUUAAUUGAAUCUAGUAUAUGCUGGAAUUCUCGGGUGCCAA`: “RBNS enrichment (R)” 0.939.
`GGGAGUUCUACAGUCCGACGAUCCUCUGAAUUAAGGAUUUCAGGUUUAACUGGUAGUGAAAGACUGCACCUAGCAUCUUCGGGAAGAAAUGAUUCCAGUCUAUUGGCUGAUACUACAUUAGUUUCCCUUUCUGUGGAAUUCUCGGGUGCCAA`: “RBNS enrichment (R)” 0.845.
`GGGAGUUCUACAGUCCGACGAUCUCAAAACAUAUUUUUUUUCAGGUGGUCUUUUUUGUGUCUGGCUUGCUGAGUGUAAAAGUUGUUAUCUGGACGAUCUGUCUCUCUGCUCCAAAGAAAUUUUGGAGUGAGUGUGGAAUUCUCGGGUGCCAA`: “RBNS enrichment (R)” 0.519.
Under “RBNS enrichment (R)”, `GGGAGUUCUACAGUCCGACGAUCAGAAGUGUUAACUGUUGUUGGCAGUGUAAUAUAAAACUACCAUCUACAGCCACCAAAGGAAAGCAUCUGCAUUAAAAGGAAGAAAGGAAGGAAGGAAGAAAAGAAGGAAGUGGAAUUCUCGGGUGCCAA` is recorded as 1.22.
Under “RBNS enrichment (R)”, `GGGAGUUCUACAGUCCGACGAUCCAUUACUCAAGAUUUACACAGGCAAGUGACUUCAUUUGGCACUGCUAAUAAUGGCAGGUGAACAUUCCUCUCAGGUGUGAGAUAUUUCCUAUGAAACAGUCCACUGGCAGUGGAAUUCUCGGGUGCCAA` is recorded as 0.307.
`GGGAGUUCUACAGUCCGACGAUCUGUGCAGACCUCGGGGUUGAGAACGGGGUGAAGAUGAAUGUCCUUAGUGUUGGUGCAGCACCAGCCUGGGCUCUGGGCUCCUCACCGAGACUCAGAGGCCACACUGAUUUUGGAAUUCUCGGGUGCCAA`: “RBNS enrichment (R)” 0.469.
`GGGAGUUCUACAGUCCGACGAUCAUAUGGACUAUCCAUCGAACUUAACCUGUGUGGCUUCCAGCCCUCCCUUUACCAAAAGGGUCAAUGGACCUUUCUUUGCACUGUGUGACUUAAUCAACUAUAAAAGCUUAUGGAAUUCUCGGGUGCCAA`: “RBNS enrichment (R)” 0.368.

Study 2
Target: Interferon regulatory factor 7, full length, phosphomimetic (IRF7, Homo sapiens, UniProt Q92985, residues 1-503, S471D/S472D/S475D/S476D/S477D/S483D/S484D/S487D)
Sequence of UniProt Q92985 (whole entry, unmodified, looked up): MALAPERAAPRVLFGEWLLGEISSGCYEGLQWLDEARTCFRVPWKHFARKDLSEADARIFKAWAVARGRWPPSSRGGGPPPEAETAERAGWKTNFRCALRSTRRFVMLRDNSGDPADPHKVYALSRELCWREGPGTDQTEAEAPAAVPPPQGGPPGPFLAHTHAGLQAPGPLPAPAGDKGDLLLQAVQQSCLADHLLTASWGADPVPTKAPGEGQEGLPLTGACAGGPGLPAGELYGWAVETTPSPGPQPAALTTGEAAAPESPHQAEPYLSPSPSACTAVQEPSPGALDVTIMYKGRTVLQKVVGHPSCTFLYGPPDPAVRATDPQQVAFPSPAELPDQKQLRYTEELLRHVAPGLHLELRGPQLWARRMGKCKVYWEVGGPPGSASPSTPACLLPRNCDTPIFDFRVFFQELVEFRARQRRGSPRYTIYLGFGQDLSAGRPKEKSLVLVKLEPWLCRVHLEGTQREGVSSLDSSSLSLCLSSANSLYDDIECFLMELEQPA
Technique: protein-binding microarray
Molecule type: double-stranded DNA, one strand shown
Medium: in vitro
Concentration: 2200 nM top
Setting: 60-bp whole probe
With: salmon DNA 0.4 mg/ml
Relative to: random background probes
Direction: higher = stronger binding
Constant ends, left off below: GCCTAGCAC … GTCTTGATTCGCTTGACGCTGCTG
For `TTAGGACTGGATTATCGGTTAGTGCTA`, “fitted relative affinity” read 0.0913 z-score.
`ACTGATTTCCACTTTCTTAAGTGCTAG` — result for “fitted relative affinity”: 3.12 z-score.
`TCATTTATTTATTTTTAACTGTGCTAG` — result for “fitted relative affinity”: 0.976 z-score.
`TCAGCTTTATGTGTAGGACTGTGCTAG` — result for “fitted relative affinity”: 0.433 z-score.
`GACGGTATAGGTCTCGGGACGTGCTAG` — result for “fitted relative affinity”: -0.287 z-score.
`TTAGAACTAAGACTGGATTAGTGCTAG`: “fitted relative affinity” -0.873 z-score.
`TTAGGTATCCTATTCCTTTAGTGCTAG` — result for “fitted relative affinity”: 1.1 z-score.
`TCATTTTTTTTTGTATTACTGTGCTAG`: “fitted relative affinity” 2.2 z-score.
`GACGGACTGGGTCTGGGGACGTGCTAG`: “fitted relative affinity” -0.888 z-score.
`ATAGGTATCGGTCTCGGTTAGTGCTAG` — result for “fitted relative affinity”: 0.986 z-score.
For `AAGACTTTGGTTTGTACACCGTGCTAG`, “fitted relative affinity” read 0.436 z-score.
`TCATCTTTCACTGGTCCTACTGTGCTA`: “fitted relative affinity” 2.09 z-score.
`TCAGTATTATTTATTGTACTGTGCTAG` — result for “fitted relative affinity”: 0.566 z-score.
`TCATTTTATGCTTTCTTACTGTGCTAG` — result for “fitted relative affinity”: 2.8 z-score.
`CAGCCTCTACCTCCTGGGCTCGTGCTA`: “fitted relative affinity” -0.266 z-score.
`TTAGGTTCCCTTTTCATTTAGTGCTAG` — result for “fitted relative affinity”: 2.64 z-score.
`GTCGGTATCGGTTTCGGGACGTGCTAG`: “fitted relative affinity” 4.67 z-score.
For `GACGGTTTCGGTATCGGGACGTGCTAG`, “fitted relative affinity” read 8.09 z-score.
Under “fitted relative affinity”, `TTAGATTCCAATTTCGATTAGTGCTAG` is recorded as 3.29 z-score.

Study 3
Target: RING finger protein unkempt homolog, zinc fingers 1-6, GST-SBP tag (UNK, Homo sapiens, UniProt Q9C0B0, residues 30-357)
Technique: RNA Bind-n-Seq
Molecule type: RNA
Medium: in vitro
Concentration: not given
Setting: RNA with constant flanks, human and mouse sites, ends assumed
Relative to: input RNA pool
Direction: higher = stronger binding
Target sequence (chain): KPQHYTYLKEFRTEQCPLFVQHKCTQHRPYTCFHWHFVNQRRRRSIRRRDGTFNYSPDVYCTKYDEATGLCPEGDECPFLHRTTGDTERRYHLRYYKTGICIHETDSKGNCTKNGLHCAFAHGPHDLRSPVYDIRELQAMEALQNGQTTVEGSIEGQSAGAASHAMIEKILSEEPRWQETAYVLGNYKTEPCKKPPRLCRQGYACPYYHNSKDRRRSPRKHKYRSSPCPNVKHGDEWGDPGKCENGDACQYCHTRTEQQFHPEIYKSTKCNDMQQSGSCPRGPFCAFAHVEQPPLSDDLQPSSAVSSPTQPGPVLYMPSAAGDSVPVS
With `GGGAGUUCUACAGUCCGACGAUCAUUGAACCUGUAUUUCCGGAGAACACAGAAAACUCUGAAAAAAUAUCCCUUCAGCUUCAUUUAGCUCUGACUUCAAAUUCAUCUUGGGUUCAGUGUCCCAGCCAUUUGGAACUCAUGAAUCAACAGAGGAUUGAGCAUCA` the bound/input enrichment was 0.196 ratio.
With `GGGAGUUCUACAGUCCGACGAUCCGUCUUCUGUCUGCCUUCCCUGUCUCCCUAACUCCCCCUUCCUUCCCAUUGUCUUUUUGGUAGGUUGGAUUCUGGGGACUAAACUGCAGUUCCUCAUAAAAAUCCCCAUUCCUACCCUUUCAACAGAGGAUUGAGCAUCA` the bound/input enrichment was 0.552 ratio.
`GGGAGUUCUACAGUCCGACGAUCGACACAAUCAUCAACCAGAAACGUUUCAACGAUGGGACCGACGAGAAGAAGAAGCUGUACUGCAUCUACGUCGCGAUUGGUCAGAAGCGGUCCACUGUGGCUCAGCUGGUGAAGAGACUGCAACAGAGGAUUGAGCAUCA` has a bound/input enrichment of 0.0954 ratio.
`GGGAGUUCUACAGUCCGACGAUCAGGCUUGGUUGUUUCAAUCUAACUGUCAAAGGUCAUGCUAAAUGUGUAGAAGUAGUGAAAACUUUUAACUUGCCAUUGCUGAUGCUCGGUGGAGGAGGCUACACAAUCCGGAAUGUUGCCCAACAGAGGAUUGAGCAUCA` gave a bound/input enrichment of 0.447 ratio.
With `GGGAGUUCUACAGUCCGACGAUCCCAUUUGACCCAUUGACCCUGCCAGAGAAGCCCCUGGCUGGAGACCUACCAGUAGACAUGGAAUUUGGAGAGGAUCUACUGGAAUCCCAGACUGCCCCAACUCGAGGAUGGGCCCCCCCUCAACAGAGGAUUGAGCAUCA` the bound/input enrichment was 0.295 ratio.
For `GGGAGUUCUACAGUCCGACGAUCGGUCACACCAGGCCUAAGAAGGCAGAAGUUGAAUCAAUUGAACUAGGGCACUAAACUGAAUAGUUGACAGUGUCAUUUUAUGUUGGAUUAUUAAUUCCUGUUUUUCUUUCUGCUAUCUGUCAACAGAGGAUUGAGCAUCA`, the bound/input enrichment was 0.193 ratio.
`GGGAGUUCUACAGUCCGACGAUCUGUGUGUGUGUGAGAGAGAGAGAGAGAGAGAGAGAGAGAGAGAGAGAGAGAGAUCUACCCAUUAGAAUUGAUUUAGGUGCCCAUUGCAUCUUUUGUACUAUGGAGUUGUUUACAGUAAGCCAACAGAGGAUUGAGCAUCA` has a bound/input enrichment of 30.4 ratio.
For `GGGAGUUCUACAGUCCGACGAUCUCCCUUCCCCUGGAGCACAACUUUACUUUCUGUGUCUCUGUUUUGCACAAUAAGAAACUCAGUAGGCAAAGGUUGUGUUUUUUUUUUUGGUAAGUUCACUUGCUUUUUAAAAUUUUUAUUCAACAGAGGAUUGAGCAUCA`, the bound/input enrichment was 0.341 ratio.

Study 4
Target: Histone acetyltransferase KAT6A, winged helix 1, GST fusion (KAT6A, Homo sapiens, UniProt Q92794, residues 1-85)
Technique: protein binding microarray
Molecule type: double-stranded DNA, one strand shown
Medium: in vitro
Concentration: not given
Setting: 8-mer, flanks averaged, mean of 2 arrays, mostly near background
Relative to: not given
Direction: higher = stronger binding
Residues (chain): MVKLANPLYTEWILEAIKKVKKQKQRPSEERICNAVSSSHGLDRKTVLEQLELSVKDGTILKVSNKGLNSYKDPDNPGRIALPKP
`GCATTTTA` gave an E-score of -0.0645.
For `GTTACATA`, the E-score was -0.00325.
`GTTACAAC` gave an E-score of 0.0108.
With `AAGGTTGA` the E-score was -0.114.
For `AGCCTATG`, the E-score was -0.243.
The E-score of `CTGTACAG` is reported as -0.0128.
With `AGCTGCCT` the E-score was -0.0504.
`CAGCGGAC` has an E-score of 0.24.
`GTCGTTAA` gave an E-score of -0.0981.
For `AGTTGTAT`, the E-score was -0.151.
With `GCGTTGCC` the E-score was 0.183.
The E-score of `CAGGGGAC` is reported as -0.0219.
`AGACAAGC` has an E-score of -0.0255.
The E-score of `CTTATAAC` is reported as -0.181.
`CACATAGG` gave an E-score of -0.189.
`AAAACATA` gave an E-score of -0.085.
`TCGGTTAA` has an E-score of 0.062.
With `CCTAATCG` the E-score was -0.104.
`AGAAGCTC` gave an E-score of -0.139.
For `GTACGGTA`, the E-score was 0.242.
The E-score of `CCCGAGAC` is reported as 0.136.
The E-score of `CCACAAAA` is reported as -0.129.
`GAAAGACA` has an E-score of -0.0526.
The E-score of `CAGTTCGA` is reported as -0.15.
The E-score of `CGTCATAG` is reported as 0.093.

Some of these lines once more (study 2):
Under “fitted relative affinity”, `TTAGATTCCAATTTCGATTAGTGCTAG` is recorded as 3.29 z-score.
`ATAGGTATCGGTCTCGGTTAGTGCTAG` — result for “fitted relative affinity”: 0.986 z-score.
`TCATCTTTCACTGGTCCTACTGTGCTA`: “fitted relative affinity” 2.09 z-score.
